Measured values from different studies.
Every numbered part comes from another study and shows a few of its results, in no order.
UniProt Q5XXA6, sequence (whole entry, unmodified, looked up): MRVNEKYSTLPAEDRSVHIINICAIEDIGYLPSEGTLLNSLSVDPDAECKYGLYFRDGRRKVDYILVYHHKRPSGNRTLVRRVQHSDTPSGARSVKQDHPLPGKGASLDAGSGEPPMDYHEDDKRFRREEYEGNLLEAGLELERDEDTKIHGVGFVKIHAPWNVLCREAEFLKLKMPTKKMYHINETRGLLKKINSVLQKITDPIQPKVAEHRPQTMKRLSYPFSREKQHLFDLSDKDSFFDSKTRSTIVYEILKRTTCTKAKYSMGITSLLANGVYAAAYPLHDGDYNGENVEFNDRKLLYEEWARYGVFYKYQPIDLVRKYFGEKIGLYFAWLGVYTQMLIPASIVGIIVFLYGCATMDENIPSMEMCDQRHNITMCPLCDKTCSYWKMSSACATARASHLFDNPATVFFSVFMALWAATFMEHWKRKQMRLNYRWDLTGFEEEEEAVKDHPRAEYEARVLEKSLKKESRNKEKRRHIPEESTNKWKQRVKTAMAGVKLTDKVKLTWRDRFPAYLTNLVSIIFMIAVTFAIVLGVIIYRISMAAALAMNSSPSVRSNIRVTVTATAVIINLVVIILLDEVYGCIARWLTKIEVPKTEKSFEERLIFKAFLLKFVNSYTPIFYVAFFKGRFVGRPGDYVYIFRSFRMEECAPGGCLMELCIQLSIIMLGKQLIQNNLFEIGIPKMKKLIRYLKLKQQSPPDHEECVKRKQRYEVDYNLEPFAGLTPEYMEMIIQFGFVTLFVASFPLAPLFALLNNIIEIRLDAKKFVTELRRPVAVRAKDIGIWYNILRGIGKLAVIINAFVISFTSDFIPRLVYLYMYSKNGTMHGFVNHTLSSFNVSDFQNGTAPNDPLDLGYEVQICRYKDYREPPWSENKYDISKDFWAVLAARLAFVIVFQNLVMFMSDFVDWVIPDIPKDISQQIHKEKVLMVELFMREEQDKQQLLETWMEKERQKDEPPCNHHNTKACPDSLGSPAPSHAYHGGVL
UniProt P42336, sequence (whole entry, unmodified, looked up): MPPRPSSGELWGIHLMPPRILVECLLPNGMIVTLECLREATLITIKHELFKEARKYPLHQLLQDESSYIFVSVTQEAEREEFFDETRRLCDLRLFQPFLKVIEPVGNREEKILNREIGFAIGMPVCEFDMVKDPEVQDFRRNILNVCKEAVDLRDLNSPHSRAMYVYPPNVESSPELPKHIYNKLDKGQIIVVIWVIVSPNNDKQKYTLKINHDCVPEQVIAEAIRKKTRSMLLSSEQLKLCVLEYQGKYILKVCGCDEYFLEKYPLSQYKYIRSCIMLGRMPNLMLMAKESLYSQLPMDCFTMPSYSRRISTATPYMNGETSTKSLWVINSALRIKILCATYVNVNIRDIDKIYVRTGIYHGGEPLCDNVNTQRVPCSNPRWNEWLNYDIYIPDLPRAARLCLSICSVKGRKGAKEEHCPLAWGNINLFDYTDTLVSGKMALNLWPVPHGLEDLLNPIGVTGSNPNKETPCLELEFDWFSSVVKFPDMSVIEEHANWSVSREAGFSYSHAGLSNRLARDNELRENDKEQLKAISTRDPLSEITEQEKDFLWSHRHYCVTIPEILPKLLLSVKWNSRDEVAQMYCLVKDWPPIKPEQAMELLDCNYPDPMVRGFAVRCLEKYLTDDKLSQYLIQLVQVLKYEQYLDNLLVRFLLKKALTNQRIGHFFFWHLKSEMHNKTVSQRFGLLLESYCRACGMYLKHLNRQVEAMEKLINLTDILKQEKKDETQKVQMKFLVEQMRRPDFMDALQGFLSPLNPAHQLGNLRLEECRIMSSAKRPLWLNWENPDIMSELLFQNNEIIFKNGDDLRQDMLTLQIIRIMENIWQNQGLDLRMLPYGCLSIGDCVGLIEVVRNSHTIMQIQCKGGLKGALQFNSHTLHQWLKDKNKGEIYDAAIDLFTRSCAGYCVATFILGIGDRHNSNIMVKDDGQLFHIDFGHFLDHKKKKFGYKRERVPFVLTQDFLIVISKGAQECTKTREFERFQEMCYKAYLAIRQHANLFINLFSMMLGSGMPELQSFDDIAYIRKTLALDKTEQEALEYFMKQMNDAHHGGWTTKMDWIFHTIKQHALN
UniProt Q06418, sequence (whole entry, looked up): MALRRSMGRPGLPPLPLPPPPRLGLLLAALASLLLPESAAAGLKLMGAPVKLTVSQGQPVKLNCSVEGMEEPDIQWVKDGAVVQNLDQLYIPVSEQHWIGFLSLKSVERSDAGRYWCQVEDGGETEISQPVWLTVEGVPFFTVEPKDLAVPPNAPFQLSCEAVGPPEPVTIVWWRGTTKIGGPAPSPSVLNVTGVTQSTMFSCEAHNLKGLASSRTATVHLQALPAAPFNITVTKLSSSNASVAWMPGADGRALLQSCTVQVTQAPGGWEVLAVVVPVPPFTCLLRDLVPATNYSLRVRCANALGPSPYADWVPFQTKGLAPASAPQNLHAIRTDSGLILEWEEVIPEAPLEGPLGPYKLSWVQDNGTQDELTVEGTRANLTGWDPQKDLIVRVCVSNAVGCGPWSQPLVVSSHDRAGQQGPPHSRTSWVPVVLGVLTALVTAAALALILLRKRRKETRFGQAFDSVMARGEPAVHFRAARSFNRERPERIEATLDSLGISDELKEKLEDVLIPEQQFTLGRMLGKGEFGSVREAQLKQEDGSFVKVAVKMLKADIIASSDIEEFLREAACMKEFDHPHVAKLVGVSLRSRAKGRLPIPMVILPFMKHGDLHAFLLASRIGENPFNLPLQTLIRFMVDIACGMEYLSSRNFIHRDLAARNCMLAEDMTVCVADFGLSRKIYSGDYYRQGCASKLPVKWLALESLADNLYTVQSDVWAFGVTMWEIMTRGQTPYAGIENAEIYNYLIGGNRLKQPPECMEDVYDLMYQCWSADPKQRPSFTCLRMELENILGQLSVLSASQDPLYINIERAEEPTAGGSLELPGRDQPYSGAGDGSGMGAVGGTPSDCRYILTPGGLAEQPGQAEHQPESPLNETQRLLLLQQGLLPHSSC
UniProt P25098, sequence (whole entry, looked up): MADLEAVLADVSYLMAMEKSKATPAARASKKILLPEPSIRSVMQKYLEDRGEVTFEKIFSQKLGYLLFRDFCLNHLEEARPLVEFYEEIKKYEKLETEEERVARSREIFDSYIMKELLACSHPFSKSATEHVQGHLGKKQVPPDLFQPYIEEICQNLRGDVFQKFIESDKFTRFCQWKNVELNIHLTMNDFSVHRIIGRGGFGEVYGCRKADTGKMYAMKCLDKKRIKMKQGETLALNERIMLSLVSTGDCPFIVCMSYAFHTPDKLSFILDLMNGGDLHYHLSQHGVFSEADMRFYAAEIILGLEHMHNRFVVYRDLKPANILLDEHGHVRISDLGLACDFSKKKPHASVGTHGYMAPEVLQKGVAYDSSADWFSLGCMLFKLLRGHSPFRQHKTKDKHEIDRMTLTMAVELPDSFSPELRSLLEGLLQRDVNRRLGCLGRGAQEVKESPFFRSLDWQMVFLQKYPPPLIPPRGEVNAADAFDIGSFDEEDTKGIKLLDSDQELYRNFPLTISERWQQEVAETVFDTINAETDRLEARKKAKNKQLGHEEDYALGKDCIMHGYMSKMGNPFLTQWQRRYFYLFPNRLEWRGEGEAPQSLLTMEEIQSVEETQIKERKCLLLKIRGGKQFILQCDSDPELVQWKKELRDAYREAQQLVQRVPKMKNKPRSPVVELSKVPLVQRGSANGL
UniProt P50750, sequence (whole entry, looked up): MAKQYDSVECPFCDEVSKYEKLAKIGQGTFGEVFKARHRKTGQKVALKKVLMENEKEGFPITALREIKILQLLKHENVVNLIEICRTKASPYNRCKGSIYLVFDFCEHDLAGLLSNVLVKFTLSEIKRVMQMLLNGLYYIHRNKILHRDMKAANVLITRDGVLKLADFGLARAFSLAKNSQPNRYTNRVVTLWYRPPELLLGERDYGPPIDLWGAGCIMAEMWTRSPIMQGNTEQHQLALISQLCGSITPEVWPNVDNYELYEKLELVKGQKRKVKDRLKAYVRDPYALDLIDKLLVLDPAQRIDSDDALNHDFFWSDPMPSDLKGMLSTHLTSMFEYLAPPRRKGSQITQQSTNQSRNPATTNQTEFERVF
UniProt O43353, sequence (whole entry, looked up): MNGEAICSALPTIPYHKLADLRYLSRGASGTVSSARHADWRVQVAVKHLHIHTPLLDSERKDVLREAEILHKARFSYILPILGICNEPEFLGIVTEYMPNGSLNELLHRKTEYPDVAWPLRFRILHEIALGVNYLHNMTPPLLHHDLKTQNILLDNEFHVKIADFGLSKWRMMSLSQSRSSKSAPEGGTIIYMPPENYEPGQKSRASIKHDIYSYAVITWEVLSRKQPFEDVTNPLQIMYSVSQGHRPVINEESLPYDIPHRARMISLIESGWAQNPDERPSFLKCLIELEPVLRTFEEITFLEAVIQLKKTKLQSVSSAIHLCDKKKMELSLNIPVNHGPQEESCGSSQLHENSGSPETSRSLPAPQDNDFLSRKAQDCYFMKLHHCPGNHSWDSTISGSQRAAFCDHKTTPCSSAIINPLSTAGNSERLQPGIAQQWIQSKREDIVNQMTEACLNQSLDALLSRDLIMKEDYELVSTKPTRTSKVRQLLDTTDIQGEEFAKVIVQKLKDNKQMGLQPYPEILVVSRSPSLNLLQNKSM
UniProt Q6P2M8, sequence (whole entry, looked up): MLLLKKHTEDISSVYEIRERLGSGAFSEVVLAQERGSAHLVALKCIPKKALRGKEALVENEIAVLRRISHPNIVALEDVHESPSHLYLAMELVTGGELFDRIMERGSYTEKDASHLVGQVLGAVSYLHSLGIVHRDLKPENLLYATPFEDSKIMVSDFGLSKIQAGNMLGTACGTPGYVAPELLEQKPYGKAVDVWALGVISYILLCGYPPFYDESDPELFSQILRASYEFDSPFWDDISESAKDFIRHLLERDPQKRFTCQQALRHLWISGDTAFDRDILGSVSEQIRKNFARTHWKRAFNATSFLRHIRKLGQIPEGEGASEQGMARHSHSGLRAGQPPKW

Set 1
Host: mouse
Sample: microsomes or S9
Tested at: 2 µM
Time: 0.5 h
| Compound | remaining compound [%] |
| --- | --- |
| Cn1cc(-n2cc(Cc3c(Cl)cccc3Cl)c(=O)[nH]c2=O)cn1 | 25.6 |
| CC(C)N(C1=CC(=O)OC12CCCCC2)C(C)C | 6.24 |
| Cc1ccc(-c2nc(C(=O)N=C(N)N)c(C)[nH]2)cc1 | 24.3 |
| CCC1(O)CCOC2(CCN(C(=O)c3cc(Cl)ccc3F)CC2)C1 (stereo not shown) | 15.9 |
| Cc1ccc(CNS(=O)(=O)CC2=NC(=O)n3cccc3C2=O)cc1 | 2.47 |

Set 2
Organism: Sarcocystis neurona
Read-out: parasite growth
Tested at: 10 µM
Setting: first screen
Reference: untreated
| Compound | log2 fold change |
| --- | --- |
| O=c1ncc(F)c[nH]1 | -0.77 |
| CC(C)(C)NCC(O)c1ccc(O)c(CO)c1.CC(C)(C)NCC(O)c1ccc(O)c(CO)c1.O=S(=O)(O)O (stereo not shown) | 0.12 |
| Cc1onc(-c2ccccc2)c1C(=O)N[C@@H]1C(=O)N2[C@@H]1SC(C)(C)[C@@H]2C(=O)O | 0.31 |
| COc1ccc(CC(C)NCC(O)c2ccc(O)c(NC=O)c2)cc1.COc1ccc(CC(C)NCC(O)c2ccc(O)c(NC=O)c2)cc1.O.O.O=C(O)/C=C/C(=O)O (stereo not shown) | 0.18 |
| CN(CCO)CC(O)Cn1cnc2c1c(=O)n(C)c(=O)n2C.O=C(O)c1cccnc1 (stereo not shown) | 0.11 |
| NS(=O)(=O)c1cc2c(cc1C(F)(F)F)NC(Cc1ccccc1)NS2(=O)=O (stereo not shown) | 0.12 |

Set 3
SMILES: C=CCc1ccc(O)c(-c2ccc(O)c(CC=C)c2)c1
Read-out: chloride current
Method: whole-cell voltage clamp
| target | assay | conditions | IC50 |
| --- | --- | --- | --- |
| Anoctamin-1 (ANO1, Homo sapiens, UniProt Q5XXA6, del476-501/R631I) | inhibitor | R605I mutant at -60 mV | 23.8 µM |
| Anoctamin-1 (ANO1, Homo sapiens, UniProt Q5XXA6, del476-501) |  | membrane voltage -60 mV, with: 300 nM Ca2+ | 2.82 µM |
| Anoctamin-1 (ANO1, Homo sapiens, UniProt Q5XXA6, del476-501/F807Y) | inhibitor | 100 mV holding voltage | 13.4 µM |

Set 4
Structure (SMILES): O=C(Nc1ccc(Oc2ccc(F)cc2)cc1)N1CCc2ncccc2[C@H]1c1ccc(F)cc1
Read-out: cell-free assay
Method: competition with immobilised ligand
Tested at: 1 µM
| target | remaining binding |
| --- | --- |
| PIK3CB (Homo sapiens, UniProt P42338) | 77% |
| PNCK (Homo sapiens, UniProt Q6P2M8) | 96% |
| RIPK2 (Homo sapiens, UniProt O43353) | 96% |
| PIK3CA (Homo sapiens, UniProt P42336, H1047L) | 85% |
| MAPK6 (Homo sapiens, UniProt Q16659) | 98% |
| GRK2 (Homo sapiens, UniProt P25098) | 92% |
| LRRK2 (Homo sapiens, UniProt Q5S007, G2019S) | 100% |
| GSK3A (Homo sapiens, UniProt P49840) | 95% |
| ANKK1 (Homo sapiens, UniProt Q8NFD2) | 92% |
| MAP4K1 (Homo sapiens, UniProt Q92918) | 100% |
| FLT3 (Homo sapiens, UniProt P36888, N841I) | 93% |
| CDK9 (Homo sapiens, UniProt P50750) | 87% |
| MATK (Homo sapiens, UniProt P42679) | 90% |
| TYRO3 (Homo sapiens, UniProt Q06418) | 99% |
